Measured values collected from several papers.
Parts stem from different laboratories: compare values within a part only. Substitutions count along the parent as printed.

Block 1
Target: UDP-N-acetylglucosamine--peptide N-acetylglucosaminyltransferase 110 kDa subunit (OGT, Homo sapiens, UniProt O15294)
Effect on: binding
Technique: phage display NGS
Molecule type: peptide
Concentration: concentration not given
Notes: normalized abundance
Relative to: input library
Endpoint: enrichment fold change
Residues (O15294 1-1046): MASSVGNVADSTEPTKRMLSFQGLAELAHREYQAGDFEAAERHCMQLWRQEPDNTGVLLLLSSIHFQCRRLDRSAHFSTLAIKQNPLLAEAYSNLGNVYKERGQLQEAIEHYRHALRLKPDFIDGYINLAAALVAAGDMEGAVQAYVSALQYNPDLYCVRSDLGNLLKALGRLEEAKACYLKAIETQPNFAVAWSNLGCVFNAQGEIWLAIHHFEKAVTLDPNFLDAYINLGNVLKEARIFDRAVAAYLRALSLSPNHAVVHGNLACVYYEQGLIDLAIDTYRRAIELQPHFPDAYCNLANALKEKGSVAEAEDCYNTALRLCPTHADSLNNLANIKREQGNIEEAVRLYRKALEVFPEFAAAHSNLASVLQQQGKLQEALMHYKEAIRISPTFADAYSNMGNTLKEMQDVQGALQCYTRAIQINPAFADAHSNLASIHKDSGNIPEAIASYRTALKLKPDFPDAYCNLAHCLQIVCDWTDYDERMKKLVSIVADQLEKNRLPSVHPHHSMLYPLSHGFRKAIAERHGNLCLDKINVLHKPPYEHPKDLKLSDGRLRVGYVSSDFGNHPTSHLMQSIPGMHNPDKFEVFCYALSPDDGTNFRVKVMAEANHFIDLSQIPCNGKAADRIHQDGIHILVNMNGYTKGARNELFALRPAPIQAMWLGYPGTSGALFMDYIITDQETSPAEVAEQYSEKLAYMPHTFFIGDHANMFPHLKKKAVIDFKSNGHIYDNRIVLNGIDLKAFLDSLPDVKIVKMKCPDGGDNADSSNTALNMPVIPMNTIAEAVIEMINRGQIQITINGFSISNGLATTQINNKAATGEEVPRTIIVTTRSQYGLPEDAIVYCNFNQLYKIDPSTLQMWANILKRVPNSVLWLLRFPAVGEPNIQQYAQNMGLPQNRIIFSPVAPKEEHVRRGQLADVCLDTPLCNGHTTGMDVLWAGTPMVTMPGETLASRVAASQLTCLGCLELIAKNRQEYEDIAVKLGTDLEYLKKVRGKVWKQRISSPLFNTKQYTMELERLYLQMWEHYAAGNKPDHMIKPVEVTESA
HYMSHPIHLFKGHHN: 4.26
NFLPFYAIQTFNNAT: 4.78
VTPMHDHFHHINMSV: 7.37

Block 2
Target: tungstate, free oxyanion
Technique: microfluidic competitive inhibition
Medium: in vitro, cell-free expressed
Concentration: not given
Notes: derived from inhibition constants, unchanged parent 2230 nM
Reading: lower = stronger binding
Endpoint: oxyanion analog dissociation constant
Starting sequence: PafA, mature enzyme, eGFP fusion (Elizabethkingia meningoseptica, UniProt Q9KJX5); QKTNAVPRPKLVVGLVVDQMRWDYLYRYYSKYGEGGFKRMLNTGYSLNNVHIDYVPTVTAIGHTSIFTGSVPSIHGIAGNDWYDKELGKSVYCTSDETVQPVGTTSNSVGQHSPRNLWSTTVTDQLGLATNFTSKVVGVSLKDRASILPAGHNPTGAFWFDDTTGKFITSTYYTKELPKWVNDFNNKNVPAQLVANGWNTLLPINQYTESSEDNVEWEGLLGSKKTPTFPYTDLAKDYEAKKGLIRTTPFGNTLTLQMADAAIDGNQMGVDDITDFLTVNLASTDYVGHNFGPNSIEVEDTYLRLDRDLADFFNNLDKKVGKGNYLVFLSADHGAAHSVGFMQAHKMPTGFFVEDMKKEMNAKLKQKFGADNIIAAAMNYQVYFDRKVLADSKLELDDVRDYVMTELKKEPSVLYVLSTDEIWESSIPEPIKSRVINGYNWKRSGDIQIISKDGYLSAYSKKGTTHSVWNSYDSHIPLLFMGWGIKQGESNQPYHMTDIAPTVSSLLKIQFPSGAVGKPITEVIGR
I168V: 2.3 µM
A458V: 2.68 µM
Q206V: 2.45 µM

Block 3
Target: CREB3L3, bZIP domain (human)
Technique: DHFR protein complementation
Medium: yeast
Notes: single substitutions, most at no-binding floor
Relative to: wild-type JUN-FOS pair
Reading: higher = stronger binding
Endpoint: binding fitness
Starting sequence: JUN, bZIP domain (human); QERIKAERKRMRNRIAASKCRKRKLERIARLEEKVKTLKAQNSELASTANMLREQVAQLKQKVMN; partner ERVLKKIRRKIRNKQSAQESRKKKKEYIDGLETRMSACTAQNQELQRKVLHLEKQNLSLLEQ
E54D: -1.53 natural log
K39G: -1.43 natural log
V56T: -1.5 natural log
S47Q: -1.47 natural log
N42R: -1.42 natural log
L38Q: -1.56 natural log
N42V: -1.45 natural log
L59P: -1.44 natural log

Block 4
Target: CCNB3, cyclin fold, Cln2 fusion (human)
Technique: yeast growth competition, sequencing
Medium: yeast
Notes: strong parent motif
Relative to: not given
Reading: higher = stronger binding
Endpoint: normalised enrichment score
Starting sequence: viral docking peptide; KGVKRKLFAEDSS
A9M: 3.2
K6C: 0.948
K6N: 0.904
R5A: 0.282
K6R: 3.14
L7D: 0.107
R5Q: 0.517
K6L: 1
V3Y: 0.326
E10D: 3.8
K6A: 0.982
E10T: 2.14
K4A: 2.04
V3M: 0.237
G2F: 2.16
R5P: 0.132
F8E: 0.074
L7H: -0.137
G2M: 2.29
V3I: 2.15
G2N: 3.26
L7R: 0.102
F8S: -0.419
D11Q: 1.87
R5D: -0.0493

Block 5
Target: RING finger protein unkempt homolog, zinc fingers 1-6, GST-SBP tag (UNK, Homo sapiens, UniProt Q9C0B0, residues 30-357)
Technique: RNA Bind-n-Seq
Molecule type: RNA
Medium: in vitro
Concentration: not given
Notes: RNA with constant flanks, human-mouse chimeric sites, ends assumed
Relative to: input RNA pool
Reading: higher = stronger binding
Endpoint: bound/input enrichment
Constant ends, left off below: GGGAGUUCUACAGUCCGACGAUC … CAACAGAGGAUUGAGCAUCA
Residues (chain): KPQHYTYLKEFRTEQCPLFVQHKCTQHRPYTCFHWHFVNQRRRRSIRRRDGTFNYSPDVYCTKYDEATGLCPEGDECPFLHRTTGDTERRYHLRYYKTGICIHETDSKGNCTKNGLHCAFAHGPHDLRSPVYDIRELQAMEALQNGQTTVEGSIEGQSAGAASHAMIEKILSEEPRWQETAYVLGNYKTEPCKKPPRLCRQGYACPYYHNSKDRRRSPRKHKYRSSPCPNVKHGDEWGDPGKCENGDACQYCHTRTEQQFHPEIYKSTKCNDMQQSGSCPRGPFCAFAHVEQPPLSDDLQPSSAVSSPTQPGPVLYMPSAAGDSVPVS
AGGAGGAGGUUAAAGGGUGAGAGUGGGGUGGAAGACUGUGUCAUGGCUCUGGAGACACUGUUCAGUGUUCUGCUUUCUCUGUGCAGACUUAUGGCUCCUUACACGCCCUUUCUGACUGAG: 0.0714 ratio
GGACAUCUUGUCAGGAUUUAUGUUCCUGUGAAACAAGUGAACACUCUGAUACACUUCAUCUGCUUGUACAUCUGUAUGAUAGAGAAAUGUAAAUAUGUUAAUCCAAGAUGAAUUCAACUU: 0.155 ratio
ACCAUUUCUGAAUACACGGCUUUGUGUGUAGUUCACUUACGGUAUUAAAUUAUUAUUGCCCUUAGUUUAUAAUAAGGAUAAUUGCAUUUAAAGAGGUUACUGAAUGUUACUCUGAAACUU: 0.56 ratio
CCCCAAUACCAUUUGCAGGUCUGGAACUGCACUCUCUUUUUUAAAAAACAUGUAUACAUUUUAGGGCUGUAGAUUUACUUUCCUAUUUUUGUUUUUCAUUGCUGACUUUUGAGCACAGAA: 1.71 ratio
AAAGUGAUGACUAUGUUUGUCCAACGACAGGUAUUUUCGGAGAGCAAAGAUGAGAUUGCGUUAGUCCUGUUUGGUACAGAUGGCACUGAUAAUGCCCUUUCUGGUGGGGACCAGUAUCAG: 0.28 ratio
UACUCAACUUUCUUGCCACAUUUUGAAUUCCAAGACAUUAUUCCUCCAGAUGACUUUCUAACGAGUGAUGAAGAAGUAGAUUUGGUUUUAUUUGGAACUAUGAGAGGACAAGUUGUUGGA: 0.303 ratio
AACUUCGUGCAUCGGUUUCCCUUUGUAGCUGUUUCAAUUGGCUUCCUUGUAAAUAAAGAGAUGGAGUUUGGAAUUGUGUACAGCUGUGUGGAAGAUAAGAUGUACACCGGCAGGAAAGGG: 0.355 ratio
AGAUUCCCCCUCCUGAGACCUCCUCCGAAGUUGGAGUCUCUUACAGAUGCCUCAUCCCCUGUUAGCGUUUUAGUUUGGACCACCCAGCCUUGGACGAUUCCAGCCAACCAGGCAAUUUGC: 1.05 ratio

Block 6
Target: Prothrombin, mature alpha-thrombin (F2, Homo sapiens, UniProt P00734)
Technique: aptamer microarray, sandwich
Molecule type: DNA with 2'F-ANA
Medium: in vitro
Concentration: 200 nM
Notes: whole 15-mer aptamer, many near background
Added: Cy3 exosite-II aptamer, 400 nM
Reading: higher = stronger binding
Endpoint: mean fluorescence intensity
Sequence: GGTTGGTGTGGTTGG
2'F-ANA at 2 3 7 8 9 10 14: 560 a.u.
2'F-ANA at 3 9 11 14: 637 a.u.
2'F-ANA at 2 3 4 5 6 8 9 10 13: 55.1 a.u.
2'F-ANA at 2 7 8 12 13: 658 a.u.
2'F-ANA at 1 2 3 4 5 10 14: 48.1 a.u.
2'F-ANA at 1 6 8 10 11 12 13 15: 145 a.u.
2'F-ANA at 2 4 6 7 9 11 14: 73.2 a.u.
2'F-ANA at 1 4 5 6 8 10 12 14 15: 57.5 a.u.

Repeated from above (block 1):
HYMSHPIHLFKGHHN: 4.26
VTPMHDHFHHINMSV: 7.37
NFLPFYAIQTFNNAT: 4.78
